{"data": "Measurements of several laboratories", "CYP2C9": "Cytochrome P450 2C9 (CYP2C9, Homo sapiens, UniProt P11712)", "CYP2C8": "Cytochrome P450 2C8 (CYP2C8, Homo sapiens, UniProt P10632)", "CYP2C19": "Cytochrome P450 2C19 (CYP2C19, Homo sapiens, UniProt P33261)", "ABCB1": "ATP-dependent translocase ABCB1 (ABCB1, Homo sapiens, UniProt P08183)", "note": "Each line is one published result; not all experiments were run side by side. Numbers after ± are the reported error.", "UniProt P11712, sequence (whole entry, looked up)": "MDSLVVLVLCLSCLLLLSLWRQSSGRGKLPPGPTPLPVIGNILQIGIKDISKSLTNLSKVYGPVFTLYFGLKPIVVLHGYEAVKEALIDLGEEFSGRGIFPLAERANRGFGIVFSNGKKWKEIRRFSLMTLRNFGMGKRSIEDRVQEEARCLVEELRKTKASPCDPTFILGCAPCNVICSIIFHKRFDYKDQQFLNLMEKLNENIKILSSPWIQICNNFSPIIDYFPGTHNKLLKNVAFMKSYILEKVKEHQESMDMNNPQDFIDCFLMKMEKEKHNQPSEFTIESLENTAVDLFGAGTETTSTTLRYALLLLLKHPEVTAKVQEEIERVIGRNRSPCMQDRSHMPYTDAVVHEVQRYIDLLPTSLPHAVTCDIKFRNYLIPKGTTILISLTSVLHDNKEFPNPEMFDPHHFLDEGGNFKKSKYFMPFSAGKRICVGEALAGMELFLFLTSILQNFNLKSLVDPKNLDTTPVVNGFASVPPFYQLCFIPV", "UniProt P10632, sequence (whole entry, looked up)": "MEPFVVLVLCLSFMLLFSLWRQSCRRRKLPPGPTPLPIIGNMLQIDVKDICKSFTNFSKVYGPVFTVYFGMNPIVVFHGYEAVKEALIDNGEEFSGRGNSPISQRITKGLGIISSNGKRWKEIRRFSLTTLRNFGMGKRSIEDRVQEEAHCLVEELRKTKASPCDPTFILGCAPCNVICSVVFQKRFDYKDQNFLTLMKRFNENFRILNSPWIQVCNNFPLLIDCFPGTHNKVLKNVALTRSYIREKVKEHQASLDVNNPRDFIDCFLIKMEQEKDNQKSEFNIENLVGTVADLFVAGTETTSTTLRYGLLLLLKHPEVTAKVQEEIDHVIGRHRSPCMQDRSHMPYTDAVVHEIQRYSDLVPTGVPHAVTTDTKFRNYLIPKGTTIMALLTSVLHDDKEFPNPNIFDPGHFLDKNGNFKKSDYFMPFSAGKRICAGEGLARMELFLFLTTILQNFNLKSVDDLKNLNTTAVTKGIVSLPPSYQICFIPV", "UniProt P08183, sequence (whole entry, looked up)": "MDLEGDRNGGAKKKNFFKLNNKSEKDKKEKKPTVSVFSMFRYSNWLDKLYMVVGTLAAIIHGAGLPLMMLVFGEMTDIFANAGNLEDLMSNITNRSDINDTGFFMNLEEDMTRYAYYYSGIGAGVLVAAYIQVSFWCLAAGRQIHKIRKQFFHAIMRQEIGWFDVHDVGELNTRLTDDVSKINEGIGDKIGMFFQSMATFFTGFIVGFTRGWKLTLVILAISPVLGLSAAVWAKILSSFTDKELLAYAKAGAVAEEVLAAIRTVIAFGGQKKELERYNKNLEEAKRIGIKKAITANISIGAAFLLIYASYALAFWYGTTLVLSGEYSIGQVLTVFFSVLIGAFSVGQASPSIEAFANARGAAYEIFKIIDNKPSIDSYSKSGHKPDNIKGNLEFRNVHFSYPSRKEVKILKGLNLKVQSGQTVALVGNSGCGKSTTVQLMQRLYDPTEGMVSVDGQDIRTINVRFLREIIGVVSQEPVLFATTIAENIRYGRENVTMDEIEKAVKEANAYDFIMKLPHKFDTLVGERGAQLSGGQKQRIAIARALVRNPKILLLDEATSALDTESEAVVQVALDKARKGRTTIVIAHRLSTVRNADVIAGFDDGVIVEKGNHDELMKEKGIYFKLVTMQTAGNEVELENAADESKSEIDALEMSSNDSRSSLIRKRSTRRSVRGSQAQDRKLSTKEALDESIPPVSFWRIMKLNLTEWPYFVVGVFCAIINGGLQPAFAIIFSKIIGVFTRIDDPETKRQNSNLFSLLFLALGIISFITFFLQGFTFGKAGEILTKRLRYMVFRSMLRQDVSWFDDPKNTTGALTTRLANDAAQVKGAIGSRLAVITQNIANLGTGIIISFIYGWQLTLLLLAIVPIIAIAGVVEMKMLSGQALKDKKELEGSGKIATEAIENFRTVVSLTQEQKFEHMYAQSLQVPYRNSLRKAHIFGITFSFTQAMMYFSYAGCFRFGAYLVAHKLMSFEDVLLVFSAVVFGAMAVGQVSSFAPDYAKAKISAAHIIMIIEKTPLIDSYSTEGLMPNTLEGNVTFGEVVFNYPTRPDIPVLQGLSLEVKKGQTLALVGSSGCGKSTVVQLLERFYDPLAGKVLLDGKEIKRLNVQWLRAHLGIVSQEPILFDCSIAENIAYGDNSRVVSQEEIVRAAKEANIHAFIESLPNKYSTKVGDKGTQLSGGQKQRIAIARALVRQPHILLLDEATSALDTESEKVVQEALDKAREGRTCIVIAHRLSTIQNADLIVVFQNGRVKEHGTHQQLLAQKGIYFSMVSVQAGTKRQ", "UniProt P33527, sequence (whole entry, looked up)": "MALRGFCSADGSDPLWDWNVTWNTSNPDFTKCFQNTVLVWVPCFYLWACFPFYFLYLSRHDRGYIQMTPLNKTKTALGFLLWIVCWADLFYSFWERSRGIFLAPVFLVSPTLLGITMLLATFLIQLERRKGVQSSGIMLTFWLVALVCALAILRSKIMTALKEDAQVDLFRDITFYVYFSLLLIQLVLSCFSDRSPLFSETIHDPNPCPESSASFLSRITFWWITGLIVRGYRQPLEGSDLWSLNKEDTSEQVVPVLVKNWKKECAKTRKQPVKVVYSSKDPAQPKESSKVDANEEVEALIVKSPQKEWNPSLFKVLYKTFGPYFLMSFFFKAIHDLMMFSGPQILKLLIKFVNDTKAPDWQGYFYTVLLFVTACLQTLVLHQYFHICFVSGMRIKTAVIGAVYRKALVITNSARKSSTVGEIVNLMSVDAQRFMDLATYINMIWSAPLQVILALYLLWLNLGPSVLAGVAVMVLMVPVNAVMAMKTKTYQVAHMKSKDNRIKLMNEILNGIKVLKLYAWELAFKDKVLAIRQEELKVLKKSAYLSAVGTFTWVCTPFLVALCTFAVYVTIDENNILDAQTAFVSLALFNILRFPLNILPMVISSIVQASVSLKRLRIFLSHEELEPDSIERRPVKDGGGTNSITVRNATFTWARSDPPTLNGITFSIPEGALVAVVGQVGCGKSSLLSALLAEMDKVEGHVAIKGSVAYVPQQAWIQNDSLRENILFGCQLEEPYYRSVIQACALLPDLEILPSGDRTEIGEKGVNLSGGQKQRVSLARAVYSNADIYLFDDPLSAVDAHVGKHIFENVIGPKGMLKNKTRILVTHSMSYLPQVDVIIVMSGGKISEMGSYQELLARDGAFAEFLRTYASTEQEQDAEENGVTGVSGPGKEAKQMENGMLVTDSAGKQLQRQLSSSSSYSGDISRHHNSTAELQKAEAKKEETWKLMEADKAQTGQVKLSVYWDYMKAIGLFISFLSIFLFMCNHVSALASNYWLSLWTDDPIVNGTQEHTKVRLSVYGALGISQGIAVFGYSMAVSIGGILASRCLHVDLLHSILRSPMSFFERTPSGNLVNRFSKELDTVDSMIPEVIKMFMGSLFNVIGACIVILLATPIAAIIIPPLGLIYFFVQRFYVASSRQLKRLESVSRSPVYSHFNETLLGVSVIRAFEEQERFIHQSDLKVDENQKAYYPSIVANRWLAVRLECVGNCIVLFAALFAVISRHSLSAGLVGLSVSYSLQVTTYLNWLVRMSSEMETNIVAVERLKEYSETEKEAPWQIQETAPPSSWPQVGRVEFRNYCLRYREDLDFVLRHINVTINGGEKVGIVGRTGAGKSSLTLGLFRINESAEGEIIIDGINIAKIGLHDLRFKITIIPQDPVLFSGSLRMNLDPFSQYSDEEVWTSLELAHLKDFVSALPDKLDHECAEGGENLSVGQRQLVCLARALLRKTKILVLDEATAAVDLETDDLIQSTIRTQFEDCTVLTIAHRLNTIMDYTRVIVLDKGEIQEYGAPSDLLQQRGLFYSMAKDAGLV", "UniProt P08684, sequence (whole entry, looked up)": "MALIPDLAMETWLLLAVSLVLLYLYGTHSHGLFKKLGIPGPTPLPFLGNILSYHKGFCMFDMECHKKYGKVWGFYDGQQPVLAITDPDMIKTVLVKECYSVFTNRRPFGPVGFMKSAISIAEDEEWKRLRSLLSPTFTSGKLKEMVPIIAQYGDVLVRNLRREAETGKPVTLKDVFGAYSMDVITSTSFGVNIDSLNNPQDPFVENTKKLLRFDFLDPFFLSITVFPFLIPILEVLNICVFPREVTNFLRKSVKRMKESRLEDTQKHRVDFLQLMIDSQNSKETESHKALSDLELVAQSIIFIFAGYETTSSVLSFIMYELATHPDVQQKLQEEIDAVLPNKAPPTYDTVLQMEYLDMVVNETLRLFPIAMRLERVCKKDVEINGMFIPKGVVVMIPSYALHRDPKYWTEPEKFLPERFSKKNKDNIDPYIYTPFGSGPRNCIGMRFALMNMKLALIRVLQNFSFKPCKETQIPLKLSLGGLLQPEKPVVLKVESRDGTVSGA", "UniProt P0C1U8, sequence (whole entry, looked up)": "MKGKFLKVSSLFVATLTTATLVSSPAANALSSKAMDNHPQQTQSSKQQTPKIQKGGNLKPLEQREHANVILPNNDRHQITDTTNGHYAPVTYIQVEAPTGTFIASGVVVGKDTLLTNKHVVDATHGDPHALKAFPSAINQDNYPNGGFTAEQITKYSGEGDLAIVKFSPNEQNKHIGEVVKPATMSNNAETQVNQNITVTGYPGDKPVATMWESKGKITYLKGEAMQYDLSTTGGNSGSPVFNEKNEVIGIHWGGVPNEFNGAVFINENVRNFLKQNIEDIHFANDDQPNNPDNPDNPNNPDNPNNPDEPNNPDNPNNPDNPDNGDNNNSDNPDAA", "UniProt Q06520, sequence (whole entry, looked up)": "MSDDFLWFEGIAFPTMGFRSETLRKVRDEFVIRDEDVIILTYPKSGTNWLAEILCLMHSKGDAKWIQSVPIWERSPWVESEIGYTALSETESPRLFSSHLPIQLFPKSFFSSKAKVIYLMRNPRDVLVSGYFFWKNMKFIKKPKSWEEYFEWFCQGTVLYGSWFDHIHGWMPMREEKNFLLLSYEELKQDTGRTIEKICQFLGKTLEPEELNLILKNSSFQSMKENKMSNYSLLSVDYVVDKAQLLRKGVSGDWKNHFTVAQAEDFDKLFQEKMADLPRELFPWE"}
{"SMILES": "CCCS(=O)(=O)c1ccc2[nH]c(NC(=O)OC)nc2c1", "target": "CYP2C9", "test": "inhibitor", "system": "human liver microsomes", "setting": "2 µM, pH 7.4, together with: diclofenac", "endpoint": "inhibition", "value": "6.06%"}
{"SMILES": "CC[C@@H]1CN2CCc3c([nH]c4cccc(OC)c34)[C@@H]2C[C@@H]1/C(=C\\OC)C(=O)OC", "target": "CYP2C9", "test": "recombinant enzyme metabolism", "setting": "2 µM, 60 min", "endpoint": "remaining compound", "value": "99%"}
{"SMILES": "CNC(=O)Oc1cc(C)c([S+](C)[O-])c(C)c1 (stereo not shown)", "target": "CYP2C8", "system": "human liver microsomes", "setting": "2 µM, pH 7.4, together with: paclitaxel", "endpoint": "inhibition", "value": "< 0%"}
{"SMILES": "N=C(N)NCCC[C@H](NC(=O)[C@H](Cc1c[nH]c2ccccc12)NC(=O)[C@H](CCCCN)NC(=O)[C@H](CCCNC(=N)N)NC(=O)[C@H](Cc1c[nH]c2ccccc12)NC(=O)[C@H](CCCCN)NC(=O)[C@H](CCCNC(=N)N)NC(=O)[C@H](Cc1c[nH]c2ccccc12)NC(=O)[C@H](CCCCN)NC(=O)[C@H](CCCNC(=N)N)NC(=O)[C@@H](N)Cc1c[nH]c2ccccc12)C(=O)N[C@@H](CCCCN)C(N)=O", "target": "pepsin", "test": "RP-HPLC", "setting": "6 h, 37 °C", "endpoint": "remaining peptide", "value": "< 10%"}
{"SMILES": "C[C@]12CC[C@H](O)CC1CCC1C2[C@H](O)C(=O)[C@]2(C)[C@@H](c3ccc(=O)oc3)CC[C@]12O (stereo partly shown)", "target": "SULT2A1 (Homo sapiens, UniProt Q06520)", "test": "substrate", "system": "human intestine cytosol", "setting": "pH 7.4", "endpoint": "sulfation rate", "value": "16.4 pmol/min/mg protein"}
{"SMILES": "C=CC(=O)Nc1cc(Nc2nccc(-c3cn(C)c4ccccc34)n2)c(OCC(F)(F)F)nc1N(C)CCN(C)C", "target": "Cytochrome P450 3A4 (CYP3A4, Homo sapiens, UniProt P08684)", "test": "enzyme activity, inhibitor", "system": "human, liver microsomes", "setting": "0.1 µM, midazolam probe", "endpoint": "activity vs control", "value": "79.6%"}
{"SMILES": "CCN(CC)CCOc1ccc(-c2nnn(Cc3ccc(OC)cc3)c2N)cc1", "target": "CYP2C19", "test": "enzyme activity, inhibitor", "setting": "concentration not given", "endpoint": "inhibition", "value": "no inhibition"}
{"SMILES": "[11CH3]Oc1ccc(Cc2ccncc2)nc1-c1cccc([N+](=O)[O-])c1", "target": "PDE4D", "system": "rhesus monkey", "setting": "dose not given, 85 min, together with: rolipram 1.0 mg/kg i.v. preblock", "endpoint": "brain radioactivity", "value": "0.65 SUV"}
{"SMILES": "CC(C)(O)c1ccccc1CC[C@H](c1cccc(/C=C/c2ccc3ccc(Cl)cc3n2)c1)S(=O)(=O)CC1(CC(=O)O)CC1", "target": "CYP2C9", "test": "inhibitor", "system": "human liver microsomes", "setting": "10 µM, pH 7.4, together with: diclofenac", "endpoint": "inhibition", "value": "91.1%"}
{"SMILES": "Cc1ccc2nc(C)c(C(=O)NCc3ccc(C(F)(F)F)cc3)n2c1", "target": "CYP2C19", "test": "inhibitor", "endpoint": "IC50", "value": "> 20 µM"}
{"SMILES": "CCCCCC1=C(NCC)C(=O)C(C/C=C(\\C)CCC=C(C)C)=C(O)C1=O", "target": "ABCB1", "test": "transport, inhibitor", "setting": "up to 22.5 µM", "endpoint": "inhibition", "value": "81%"}
{"SMILES": "CNC(=O)Oc1cc(C)c(S(C)(=O)=O)c(C)c1", "target": "CYP2C9", "test": "inhibitor", "system": "human liver microsomes", "setting": "10 µM, pH 7.4, together with: diclofenac", "endpoint": "inhibition", "value": "5.31%"}
{"SMILES": "N#Cc1c(O)c(Cl)c(Cl)c(C#N)c1Cl", "target": "ABCB1", "test": "inhibitor", "system": "HEK293 expressing target", "setting": "concentration not given, together with: [3H]digoxin", "endpoint": "intracellular accumulation", "value": "no effect"}
{"SMILES": "O=C1Cc2cc(CCN3CCN(C4=NS(=O)(=O)c5ccccc54)CC3)c(Cl)cc2N1", "target": "CYP2C9", "test": "inhibitor", "system": "human liver microsomes", "setting": "2 µM, pH 7.4, together with: diclofenac", "endpoint": "inhibition", "value": "0.77%"}
{"SMILES": "Cc1cn2c(C(=O)NCc3ccc(C(F)(F)F)cc3)c(C)nc2s1", "target": "CYP2C8", "test": "inhibitor", "endpoint": "IC50", "value": "> 20 µM"}
{"SMILES": "CC[C@H](C)[C@H](NC(=O)[C@H](Cc1ccccc1)NC(=O)[C@H](CCC(=O)O)NC(=O)[C@H](CCCCN)NC(=O)[C@H](C)NC(=O)[C@H](C)NC(=O)[C@H](CCC(N)=O)NC(=O)CNC(=O)[C@H](CCC(=O)O)NC(=O)[C@H](CC(C)C)NC(=O)[C@H](Cc1ccc(O)cc1)NC(=O)[C@H](CO)NC(=O)[C@H](CO)NC(=O)[C@@H](NC(=O)[C@H](CC(=O)O)NC(=O)[C@H](CO)NC(=O)[C@@H](NC(=O)[C@H](Cc1ccccc1)NC(=O)[C@@H](NC(=O)CNC(=O)[C@H](CCC(=O)O)NC(=O)[C@H](C)NC(=O)[C@@H](N)Cc1c[nH]cn1)[C@@H](C)O)[C@@H](C)O)C(C)C)C(=O)N[C@@H](C)C(=O)N[C@@H](Cc1c[nH]c2ccccc12)C(=O)N[C@@H](CC(C)C)C(=O)N[C@H](C(=O)N[C@@H](CCCCN)C(=O)NCC(=O)N[C@@H](CCCNC(=N)N)C(N)=O)C(C)C", "target": "Dipeptidyl peptidase 4 (Bos taurus, UniProt P81425)", "test": "GLP1R CRE-luciferase", "system": "DMEM with 10% FBS", "setting": "100 nM, 37 °C, together with: diprotin A 0.2 mM", "endpoint": "stability duration", "value": "> 72 h"}
{"SMILES": "CC[C@H](C)[C@H](NC(=O)CN)C(=O)NCC(=O)N[C@@H](CCCCN)C(=O)N[C@@H](Cc1ccccc1)C(=O)N[C@@H](CC(C)C)C(=O)N[C@@H](Cc1c[nH]cn1)C(=O)N[C@@H](CO)C(=O)N[C@@H](C)C(=O)N[C@@H](CCCCN)C(=O)N[C@@H](CCCCN)C(=O)N[C@@H](Cc1ccccc1)C(=O)NCC(=O)N[C@@H](CCCCN)C(=O)N[C@@H](C)C(=O)N[C@@H](Cc1ccccc1)C(=O)N[C@H](C(=O)NCC(=O)N[C@@H](CCC(=O)O)C(=O)N[C@H](C(=O)N[C@@H](CCSC)C(=O)N[C@@H](CC(N)=O)C(=O)N[C@@H](CO)C(=O)O)[C@@H](C)CC)C(C)C", "target": "Escherichia coli OmpT", "test": "substrate", "system": "E. coli BL21 expressing ompT, PBS", "setting": "2 µg/µL, room temperature", "endpoint": "time to cleavage", "value": "≤ 15 min"}
{"SMILES": "[64Cu+2].c1ccc(CNCc2ccc(CN3CCCNCCNCCCNCC3)cc2)nc1", "target": "CXCR4", "system": "NOD/SCID mouse, U87 and U87-stb-CXCR4 xenografts", "setting": "iv, 90 min, no blocking dose", "how to read": "reference: U87 tumour over blood", "endpoint": "tumour-to-tissue ratio", "value": "4.83 ± 2.26"}
{"SMILES": "CC(C)C[C@H](NC(=O)[C@H](CCCCN)NC(=O)[C@H](CCCNC(=N)N)NC(=O)[C@@H](CC(C)C)NC(=O)[C@H](Cc1c[nH]c2ccccc12)NC(=O)[C@H](CC(=O)O)NC(=O)[C@H](CCCCN)NC(=O)[C@@H](CC(C)C)NC(=O)[C@H](CCCNC(=N)N)NC(=O)[C@H](CCC(N)=O)NC(=O)[C@@H](NC(=O)[C@@H](CC(C)C)NC(=O)[C@H](CCCNC(=N)N)NC(=O)[C@H](CCCCN)NC(=O)[C@H](Cc1ccc(C(C)(C)C)cc1)NC(=O)CN)C(C)C)C(=O)N[C@H](C(N)=O)C(C)C", "target": "sspA (Staphylococcus aureus, UniProt P0C1U8)", "test": "substrate, SDS-PAGE", "setting": "24 h, pH 7.4, 37 °C", "endpoint": "proteolytic stability", "value": "stable"}
{"SMILES": "C=CCc1ccc(O)c(-c2cc(CC=C)cc(O)c2O)c1", "target": "ABCC1 (Homo sapiens, UniProt P33527)", "test": "calcein-AM efflux", "setting": "50 µM", "how to read": "reference: verapamil 30 µM", "endpoint": "inhibition", "value": "6.2 ± 1.3%"}
{"SMILES": "CC(C)(O)c1ccccc1CC[C@H](c1cccc(/C=C/c2ccc3ccc(Cl)cc3n2)c1)[S+]([O-])CC1(CC(=O)O)CC1 (stereo partly shown)", "target": "CYP2C9", "test": "inhibitor", "system": "human liver microsomes", "setting": "10 µM, pH 7.4, together with: diclofenac", "endpoint": "inhibition", "value": "76.5%"}
{"SMILES": "CN1C(=O)[C@@H](Cc2ccc(O)cc2)NC(=O)CNC(=O)[C@H](Cc2ccc3ccccc3c2)NC(=O)[C@H](CCCNC(=N)N)NC(=O)[C@H]1CCCNC(=O)c1ccc(CNC(=O)CN2CCN(CC(=O)O)CCN(CC(=O)O)CCN(CC(=O)O)CC2)cc1 [gallium-68 labelled]", "target": "CXCR4 (Homo sapiens, UniProt P61073)", "test": "PET", "system": "human, brain background", "endpoint": "SUVmean", "value": 0.03}
{"note": "Some of these lines once more:"}
{"SMILES": "C=CC(=O)Nc1cc(Nc2nccc(-c3cn(C)c4ccccc34)n2)c(OCC(F)(F)F)nc1N(C)CCN(C)C", "target": "Cytochrome P450 3A4 (CYP3A4, Homo sapiens, UniProt P08684)", "test": "enzyme activity, inhibitor", "system": "human, liver microsomes", "setting": "0.1 µM, midazolam probe", "endpoint": "activity vs control", "value": "79.6%"}
{"SMILES": "Cc1ccc2nc(C)c(C(=O)NCc3ccc(C(F)(F)F)cc3)n2c1", "target": "CYP2C19", "test": "inhibitor", "endpoint": "IC50", "value": "> 20 µM"}
